# Experimental data from different studies.
# Lines come from different studies, so protocols differ. Several values in a cell are separate wells, animals, samples, runs or records.
SMILES,cell line,read-out,technique,concentration,time,notes,viability
COc1ccc(Cn2cc(CO[C@@H]3O[C@H]4[C@H](OC[C@H]4O)[C@H]3N=[N+]=[N-])nn2)cc1,CHO-K1,cytotoxicity,CellTiter-Glo,up to 30 µM,72 h,,not toxic
O=C(O)c1c(O)cc(O[C@@H]2O[C@H](CO)[C@@H](O)[C@H](O)[C@H]2O)cc1/C=C/c1ccccc1,RPE,cell growth or viability,crystal violet,50 µM,48 h,,> 50%
COc1cc2c(cc1OC)[C@@H]1C(=O)c3c(O)cc4c(c3O[C@@H]1CO2)C=CC(C)(C)O4,K562,cell growth or viability,MTT,100 µg/mL,,,91.8%
CCOC(=O)C1CC(C)C2C=CC3CCN(C(=O)C4CCC5C=CC6(CCCN6C(=O)C(Cc6ccccc6Cl)NC(C)=O)C(=O)N54)C3C(=O)N12 (stereo not drawn),B16-F1,,,180 µM,24 h,"Ena/VASP knockout, and wild type",not toxic
O=CCNCCOn1c(=O)n(OCCNCCO)c(=O)n(OCCNCCOn2c(=O)n(OCCNCCO)c(=O)n(OCCNCCO)c2=O)c1=O,HUVEC,cell growth or viability,MTT,100 µg/mL,24 h,,53.7%
CC(C)=CCc1c(O)c(CC=C(C)C)c2occ(-c3ccc(O)c(O)c3)c(=O)c2c1O,K562,cell growth or viability,MTT,100 µg/mL,,,95.8%
"O=C(C=Cc1ccccc1)OC1C=CC(O)C(O)(COC(=O)c2ccccc2)C1O (single isomer, unassigned; (-))",K562,cell growth or viability,MTT,100 µg/mL,,,72.6%
Cc1nc(Nc2ncc(C(=O)Nc3c(C)cccc3Cl)s2)cc(N2CCN(C(=O)CCOCCNC(=O)CN)CC2)n1,K562,cell growth or viability,CCK-8,1 nM,,,86% and 87% and 89%
CCOC(=O)C1CC(CC)C2C=CC3CCN(C(=O)C4CCC5C=CC6(CCCN6C(=O)C(Cc6ccccc6Cl)NC(C)=O)C(=O)N54)C3C(=O)N12 (stereo not drawn),B16-F1,,,180 µM,24 h,"Ena/VASP knockout, and wild type",not toxic
O=C(OC[C@@]1(O)C(=O)C=C[C@H]2[C@@H]1[C@H]1C=C[C@@H]2C(=O)[C@]1(O)COC(=O)c1ccccc1)c1ccccc1,K562,cell growth or viability,MTT,50 µg/mL,,,15.4%
COc1cc(N2CCN(C(=O)CN)CC2)ccc1Nc1ncc(Cl)c(Nc2ccccc2P(C)(C)=O)n1,NCI-H3122,cell growth or viability,CCK-8,10 nM,48 h,,81% and 87%
COc1cc(OC)c(-c2coc3c4c(cc(O)c3c2=O)OC(C)(C)C=C4)cc1OC,K562,cell growth or viability,MTT,100 µg/mL,,,77.9%
CCc1c(-c2ccc3[nH]ncc3c2)cnc(N)c1-c1ccc(O)cc1,CHP-212 resistant sublines (heterozygous USP7 V517F),,cell viability,0.3906 µM,,,106% and 104%
CO[C@H]1C=C[C@@H](OC(=O)c2ccccc2)[C@H](O)[C@@]1(O)COC(=O)c1ccccc1,K562,cell growth or viability,MTT,100 µg/mL,,,75.1%
C=Cc1c(C)c2cc3nc(c(CC(=O)OCCOCCOCCOC)c4[nH]c(cc5nc(cc1[nH]2)C(C)=C5CC)c(C)c4C(=O)OCCOCCOCCOC)[C@@H](CCC(=O)OCCOCCOCCOC)[C@@H]3C,OVCAR-5,,MTT,0.1 µM,4 h,dark,~20%
